Measured values from different studies.
Target: Phosphatidylinositol 4,5-bisphosphate 3-kinase catalytic subunit alpha isoform (PIK3CA, Homo sapiens, UniProt P42336)
Chain of UniProt P42336 (whole entry, looked up): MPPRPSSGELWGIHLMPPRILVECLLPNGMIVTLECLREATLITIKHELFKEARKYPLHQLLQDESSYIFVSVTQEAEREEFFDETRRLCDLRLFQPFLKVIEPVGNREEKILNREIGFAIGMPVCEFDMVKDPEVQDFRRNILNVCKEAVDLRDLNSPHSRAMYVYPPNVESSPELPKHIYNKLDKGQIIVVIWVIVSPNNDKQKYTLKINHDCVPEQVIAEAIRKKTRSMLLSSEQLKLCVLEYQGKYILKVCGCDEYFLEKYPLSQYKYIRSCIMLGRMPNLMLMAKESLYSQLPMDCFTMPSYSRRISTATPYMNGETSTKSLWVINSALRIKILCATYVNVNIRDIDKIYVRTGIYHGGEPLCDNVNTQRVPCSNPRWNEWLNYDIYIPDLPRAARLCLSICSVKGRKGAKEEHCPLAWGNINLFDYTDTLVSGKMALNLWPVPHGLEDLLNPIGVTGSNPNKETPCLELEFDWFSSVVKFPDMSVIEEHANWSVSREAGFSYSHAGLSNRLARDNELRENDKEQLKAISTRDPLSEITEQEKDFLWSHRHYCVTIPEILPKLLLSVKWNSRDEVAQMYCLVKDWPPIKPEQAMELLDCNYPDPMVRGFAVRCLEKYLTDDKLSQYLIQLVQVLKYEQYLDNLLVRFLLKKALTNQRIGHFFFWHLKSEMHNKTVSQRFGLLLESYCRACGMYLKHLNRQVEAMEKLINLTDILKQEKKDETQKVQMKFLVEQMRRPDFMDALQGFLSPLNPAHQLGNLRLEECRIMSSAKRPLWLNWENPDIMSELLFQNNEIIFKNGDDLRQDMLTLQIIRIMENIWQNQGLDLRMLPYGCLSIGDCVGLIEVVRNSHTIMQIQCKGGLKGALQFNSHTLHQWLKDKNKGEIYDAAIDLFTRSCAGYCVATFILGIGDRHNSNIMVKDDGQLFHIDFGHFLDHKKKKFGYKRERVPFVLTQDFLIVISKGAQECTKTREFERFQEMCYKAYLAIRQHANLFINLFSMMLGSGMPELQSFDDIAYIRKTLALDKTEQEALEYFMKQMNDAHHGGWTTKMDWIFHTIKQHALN

O=C1/C(=N\c2ccc(Cl)cc2Br)c2ccccc2N1C(=O)c1ccccc1  IC50 (enzyme activity, inhibitor, ADP detection): 1080 nM
Cc1nc(Nc2ccc3c(c2)/C(=C/c2ccccc2Cl)C(=O)N3C)c2ccccc2n1  IC50 (enzyme activity, inhibitor, ADP detection): 26 nM
Cc1nc2ccc(C(=O)NC(Cc3cccc(C#Cc4ccc5nccnc5c4)c3)C(=O)NCCC(=O)N[C@@H](CC(=O)N[C@@H](CCCCNC(=S)Nc3ccc4c(c3)C(=O)OC43c4ccc(O)cc4Oc4cc(O)ccc43)C(=O)O)C(=O)O)cc2nc1C (stereo partly shown)  Kd (binding, SPR): 6300 nM
Cc1ccc(CN2C(=O)C3(c4ccccc42)C(c2ccc(F)cc2)NC2(C(=O)N(C(=O)CCc4ccccc4)c4ccccc42)N3Cc2ccc(F)cc2)cc1 (stereo not shown)  IC50 (enzyme activity, inhibitor, ADP detection): 195 nM
CN1C(=O)CCC(N2C(=O)c3cccc(NCCCCCCCCCNC(=O)CCC(=O)N4CCN(c5nc(-c6cnc(N)nc6C(F)F)nc(N6CCOCC6)n5)CC4)c3C2=O)C1=O (stereo not shown)  Ki (ligand displacement, TR-FRET): 3.47 nM
Cc1nc2ccc(C(=O)N[C@H](Cc3ccc(C#Cc4ccc5nccnc5c4)cc3)C(=O)NCCC(=O)N[C@@H](CC(=O)N[C@@H](CCCCNC(=S)Nc3ccc4c(c3)C(=O)OC43c4ccc(O)cc4Oc4cc(O)ccc43)C(=O)O)C(=O)O)cc2nc1C  Kd (binding, SPR): 347 nM
Nc1ncc(-c2nc(N3CCOCC3)nc(N3CCN(C(=O)CCC(=O)NCCCCCCCCCNc4cccc5c4C(=O)N(C4CCC(=O)NC4=O)C5=O)CC3)n2)c(C(F)F)n1 (stereo not shown)  Ki (ligand displacement, TR-FRET): 1.66 nM
Cc1nc(Nc2ccc3c(c2)/C(=C/c2ccccc2)C(=O)N3)c2ccccc2n1  IC50 (enzyme activity, inhibitor, ADP detection): 18.4 nM
Nc1ncc(-c2nc(N3CCOCC3)nc(N3CCN(C(=O)CCC(=O)N4CCN(CCCCCCNc5cccc6c5C(=O)N(C5CCC(=O)NC5=O)C6=O)CC4)CC3)n2)c(C(F)F)n1 (stereo not shown)  Ki (ligand displacement, TR-FRET): 0.851 nM
O=C1/C(=N\c2cccc(Cl)c2)c2ccccc2N1Cc1ccccc1  IC50 (enzyme activity, inhibitor, ADP detection): 77.5 nM

Excerpt of the above:
CN1C(=O)CCC(N2C(=O)c3cccc(NCCCCCCCCCNC(=O)CCC(=O)N4CCN(c5nc(-c6cnc(N)nc6C(F)F)nc(N6CCOCC6)n5)CC4)c3C2=O)C1=O (stereo not shown)  Ki (ligand displacement, TR-FRET): 3.47 nM
